Published values pooled from the literature.
Each line is one published result; not all experiments were run side by side.
Cell line: HEK293

| Structure (SMILES) | assay | setting | endpoint | result |
| --- | --- | --- | --- | --- |
| CC(C)C[C@H](NC(=O)[C@H](CC(N)=O)NC(=O)[C@H](CCCNC(=N)N)NC(=O)[C@@H](CC(C)C)NC(=O)[C@H](Cc1ccc(-c2ccccc2)cc1)NC(=O)[C@H](CC(=O)O)NC(=O)[C@H](CCCCN)NC(=O)[C@@H](CC(C)C)NC(=O)[C@H](CCCNC(=N)N)NC(=O)[C@H](CCC(N)=O)NC(=O)[C@@H](NC(=O)[C@@H](CC(C)C)NC(=O)[C@H](CCCNC(=N)N)NC(=O)[C@H](CCCCN)NC(=O)[C@H](Cc1ccc(-c2ccccc2)cc1)NC(=O)CN)C(C)C)C(=O)N[C@H](C(N)=O)C(C)C | cell viability, MTS | serum-free | LC50 | 18 µM |
| C[C@@H]1CC[C@@]2(OC1)O[C@H]1[C@@H](O)[C@H]3[C@@H]4CC[C@H]5C[C@@H](O[C@@H]6O[C@H](CO)[C@H](O[C@@H]7O[C@H](CO)[C@@H](O)[C@H](O[C@@H]8OC[C@@H](O)[C@H](O)[C@H]8O)[C@H]7O[C@@H]7O[C@H](CO)[C@H](O)[C@H](O[C@@H]8O[C@H](CO)[C@@H](O)[C@H](O)[C@H]8O)[C@H]7O)[C@H](O)[C@H]6O)[C@H](O)C[C@]5(C)[C@H]4CC[C@]3(C)[C@H]1[C@@H]2C | resazurin reduction | 24 h, range 0.03 to 30 µM | LD50 | 9.68 µM |
| CCCCCCCCCCCC1CC(=O)N[C@@H]([C@@H](C)O)C(=O)N[C@@H](Cc2ccccc2)C(=O)N[C@@H]([C@@H](C)O)C(=O)N[C@H]([C@H](C)O)C(=O)N[C@@H]([C@@H](C)O)C(=O)N[C@@H](Cc2ccccc2)C(=O)O1 (some centres unmarked) | MTT | 3.2 mg | survival | 42.9% |
| CC(C)C[C@H](NC(=O)[C@H](CC(N)=O)NC(=O)[C@H](CCCNC(=N)N)NC(=O)[C@@H](CC(C)C)NC(=O)[C@H](Cc1ccc(-c2ccccc2)cc1)NC(=O)[C@H](CC(=O)O)NC(=O)[C@H](CCCNC(=N)N)NC(=O)[C@@H](CC(C)C)NC(=O)[C@H](CCCCN)NC(=O)[C@H](CCC(N)=O)NC(=O)[C@@H](NC(=O)[C@@H](CC(C)C)NC(=O)[C@H](CCCNC(=N)N)NC(=O)[C@H](CCCCN)NC(=O)[C@H](Cc1ccc(-c2ccccc2)cc1)NC(=O)CN)C(C)C)C(=O)N[C@H](C(N)=O)C(C)C | cell viability, MTS | serum-free | LC50 | 16 µM |
| CC(C)C[C@H](NC(=O)[C@H](CC(C)C)NC(=O)[C@H](CCCCN)NC(=O)CNC(=O)[C@H](CC(C)C)NC(=O)CNC(=O)[C@H](CO)NC(=O)[C@H](CC(C)C)NC(=O)[C@H](CC(C)C)NC(=O)[C@H](CO)NC(=O)[C@H](CCCCN)NC(=O)[C@H](CC(C)C)NC(=O)[C@H](CCCCN)NC(=O)[C@H](CCCCN)NC(=O)[C@H](C)NC(=O)[C@H](C)NC(=O)[C@H](C)NC(=O)CNC(=O)[C@H](CO)NC(=O)[C@H](Cc1c[nH]c2ccccc12)NC(=O)[C@@H](N)CCCCN)C(=O)O | MTS | 24 h, 37 °C | TC50 | > 100 µM |
| CCCCCCCCCCCC1CC(=O)N[C@@H](CO)C(=O)N[C@H](CO)C(=O)N[C@H](C)C(=O)N(C)[C@@H](C(C)C)C(=O)N[C@H](CO)C(=O)N[C@H](CCCCN)C(=O)N[C@H](CO)C(=O)N[C@@H](CCCCN)C(=O)O1 (some centres unmarked) | MTT | 3.2 mg | survival | 101% |
| O=S(=O)(C1CC1)N1CCCC2(C1)Nc1ccccc1N=C2NC1CCCC1 (centres unmarked) | – | 72 (unit not given) | CC50 | 94.5 µM |
| CC[C@H](C)[C@H](NC(=O)[C@H](CCCN)NC(=O)[C@H](CCCNC(=N)N)NC(=O)[C@@H]1CCCN1C(=O)[C@@H]1CCCN1C(=O)[C@H](CCCNC(=N)N)NC(=O)[C@@H]1CCCN1C(=O)[C@H](CCCNC(=N)N)NC(=O)[C@@H]1CCCN1C(=O)[C@H](CC(C)C)NC(=O)[C@H](Cc1ccc(O)cc1)NC(=O)[C@@H]1CCCN1C(=O)[C@@H]1CCCN1C(=O)[C@H](CCCCN)NC(=O)[C@H](CC(=O)O)NC(=O)[C@@H](N)C(C)C)C(=O)N[C@@H](Cc1ccc(O)cc1)C(=O)N[C@@H](CC(N)=O)C(=O)N[C@@H](CCCN)C(N)=O | MTT | concentration not given, DMEM/F12 with FBS | viability | not toxic |

Excerpt of the above:
| Structure (SMILES) | assay | setting | endpoint | result |
| --- | --- | --- | --- | --- |
| CC(C)C[C@H](NC(=O)[C@H](CC(N)=O)NC(=O)[C@H](CCCNC(=N)N)NC(=O)[C@@H](CC(C)C)NC(=O)[C@H](Cc1ccc(-c2ccccc2)cc1)NC(=O)[C@H](CC(=O)O)NC(=O)[C@H](CCCNC(=N)N)NC(=O)[C@@H](CC(C)C)NC(=O)[C@H](CCCCN)NC(=O)[C@H](CCC(N)=O)NC(=O)[C@@H](NC(=O)[C@@H](CC(C)C)NC(=O)[C@H](CCCNC(=N)N)NC(=O)[C@H](CCCCN)NC(=O)[C@H](Cc1ccc(-c2ccccc2)cc1)NC(=O)CN)C(C)C)C(=O)N[C@H](C(N)=O)C(C)C | cell viability, MTS | serum-free | LC50 | 16 µM |
